Results pooled from the literature.
Each line is one published result; not all experiments were run side by side. Values joined by “and” are separate records of one study, mostly repeats; a detail may differ.
Cell line: NCI-H23

The growth percent of `CCOc1ccc(-c2nc3cc(-c4nc5cc(N6CCN(C)CC6)ccc5[nH]4)ccc3[nH]2)cc1OCC` is reported as -7.66% (SRB; 10 µM, 48 h).
`C#C[C@@]1(O)[C@@H](CO)O[C@@H](n2cc(F)c3c(N)ncnc32)[C@@H]1O` gave a TGI of 6.85 µM (SRB; NCI-60 screen).
For `Cc1cc(=O)[nH]c(=O)n1Cc1cn(-c2c3ccccc3nc3ccccc23)nn1`, the growth percentage was 94% (NCI60 single-dose screen; 10 µM).
For `Cn1cncc1C1=CN(c2ncnc3[nH]cnc23)CCS1`, the GI50 was 27.5 µM (lung cancer).
With `Cc1cc(-c2ccccc2)n(-c2nc(-c3ccc(Cl)cc3)c3c(NC(=O)c4ccccc4)nnc-3[nH]2)n1` the cell growth was 102% (SRB; 10 µM, NCI60 single-dose screen; reference: untreated).
The TGI of `Cc1n(Cc2ccc3ccccc3c2)c2ccccc2[n+]1Cc1ccc2ccccc2c1.[Br-]` is reported as 2.76 µM (NCI60 five-dose screen).
`CSc1nc(-c2ccc(Cl)cc2)c2c(NC(=O)c3ccccc3)nnc-2[nH]1` gave a cell growth of 97.2% (SRB; 10 µM, NCI60 single-dose screen; reference: untreated).
For `CCCN1CCN(c2ccc3[nH]c(-c4ccc5[nH]c(-c6cc(OC)c(OC)c(OC)c6)nc5c4)nc3c2)CC1`, the growth percent was 80.1% (SRB; 10 µM, 48 h).
`C#C[C@@]1(O)[C@@H](CO)O[C@@H](n2cc(Cl)c3c(N)ncnc32)[C@@H]1O` has a TGI of 1.28 µM and 0.716 µM (SRB; NCI-60 screen).
`[Br-].c1ccc2cc(Cn3c[n+](Cc4ccc5ccccc5c4)c4ccccc43)ccc2c1` has a TGI of 2.51 µM (NCI60 five-dose screen).
The growth percent of `CCCCN1CCN(c2ccc3[nH]c(-c4ccc5[nH]c(-c6cc(OC)c(OC)c(OC)c6)nc5c4)nc3c2)CC1` is reported as 82.9% (SRB; 10 µM, 48 h).
With `S=C([S][Au-][P+](CCCCCC[P+]([Au-][S]C(=S)n1cccn1)(c1ccccc1)c1ccccc1)(c1ccccc1)c1ccccc1)n1cccn1` the log10 TGI was > -4 (cell growth, NCI-60 screen; non-small cell lung cancer).
`O=c1ccn(Cc2cn(-c3cc4ccccc4oc3=O)nn2)c(=O)[nH]1` gave a growth percentage of 99.5% (NCI60 single-dose screen; 10 µM).
`COc1cnc2cccc(N3CCc4c(cc(Cn5ccnc5C)cc4-c4cn(C)nc4C(F)(F)F)C3=O)c2c1` gave an EC50 of 205 nM (cell growth, inhibitor; 120 h).
`CCCN1CCN(c2ccc3[nH]c(-c4ccc5[nH]c(-c6ccc(OCC)c(OCC)c6)nc5c4)nc3c2)CC1` gave a growth percent of -53.3% (SRB; 10 µM, 48 h).
For `O=C(Nc1nnc2n3c(Cc4ccccc4)n[nH]c3nc(-c3ccc(Cl)cc3)c1-2)c1ccccc1`, the cell growth was 95% (SRB; 10 µM, NCI60 single-dose screen; reference: untreated).
With `CCCN1CCN(c2ccc3[nH]c(-c4ccc5[nH]c(-c6ccc(C(F)(F)F)cc6)nc5c4)nc3c2)CC1` the growth percent was -77.1% (SRB; 10 µM, 48 h).
With `CCCCc1n(Cc2ccc3ccccc3c2)c2ccccc2[n+]1Cc1ccc2ccccc2c1.[Br-]` the TGI was 1.7 µM (NCI60 five-dose screen).
`O=c1ccn(Cc2cn(-c3c4ccccc4nc4ccccc34)nn2)c(=O)[nH]1` has a growth percentage of 94% (NCI60 single-dose screen; 10 µM).
`Cc1cc(C)n(-c2nc(-c3ccc(Cl)cc3)c3c(NC(=O)c4ccccc4)nnc-3[nH]2)n1` has a cell growth of 94% (SRB; 10 µM, NCI60 single-dose screen; reference: untreated).
The growth percent of `COc1ccc(OC)c(-c2nc3ccc(-c4nc5ccc(N6CCN(C)CC6)cc5[nH]4)cc3[nH]2)c1` is reported as 102% (SRB; 10 µM, 48 h).
`O=C(Nc1nnc2n3c(nc(-c4ccc(Cl)cc4)c1-2)SCC3=O)c1ccccc1` gave a cell growth of 97.2% (SRB; 10 µM, NCI60 single-dose screen; reference: untreated).
`O=C(/C=C/C=C/C=C/C1CCCCC1)NC1=C[C@@](O)(/C=C/C=C/C=C/C(=O)NC2=C(O)CCC2=O)[C@@H]2O[C@@H]2C1=O` has a GI50 of 14 µM (cell growth, CellTiter-Glo; 78 h).
For `O=C1NC(c2ccccc2)(c2ccccc2)C(=O)N1Cc1cn(-c2cc3ccccc3oc2=O)nn1`, the growth percentage was 88.4% (NCI60 single-dose screen; 10 µM).
With `Cc1cc(=O)[nH]n1-c1nc(-c2ccc(Cl)cc2)c2c(NC(=O)c3ccccc3)nnc-2[nH]1` the cell growth was 101% (SRB; 10 µM, NCI60 single-dose screen; reference: untreated).

Excerpt of the above:
With `Cc1cc(-c2ccccc2)n(-c2nc(-c3ccc(Cl)cc3)c3c(NC(=O)c4ccccc4)nnc-3[nH]2)n1` the cell growth was 102% (SRB; 10 µM, NCI60 single-dose screen; reference: untreated).
The TGI of `Cc1n(Cc2ccc3ccccc3c2)c2ccccc2[n+]1Cc1ccc2ccccc2c1.[Br-]` is reported as 2.76 µM (NCI60 five-dose screen).
`CSc1nc(-c2ccc(Cl)cc2)c2c(NC(=O)c3ccccc3)nnc-2[nH]1` gave a cell growth of 97.2% (SRB; 10 µM, NCI60 single-dose screen; reference: untreated).
For `CCCN1CCN(c2ccc3[nH]c(-c4ccc5[nH]c(-c6cc(OC)c(OC)c(OC)c6)nc5c4)nc3c2)CC1`, the growth percent was 80.1% (SRB; 10 µM, 48 h).
